Experimental data from different studies.
Every numbered part comes from another study and shows a few of its results, in no order. Values joined by “and” are separate records of one study, mostly repeats; a detail may differ.
Chain of UniProt P35916 (whole entry, looked up): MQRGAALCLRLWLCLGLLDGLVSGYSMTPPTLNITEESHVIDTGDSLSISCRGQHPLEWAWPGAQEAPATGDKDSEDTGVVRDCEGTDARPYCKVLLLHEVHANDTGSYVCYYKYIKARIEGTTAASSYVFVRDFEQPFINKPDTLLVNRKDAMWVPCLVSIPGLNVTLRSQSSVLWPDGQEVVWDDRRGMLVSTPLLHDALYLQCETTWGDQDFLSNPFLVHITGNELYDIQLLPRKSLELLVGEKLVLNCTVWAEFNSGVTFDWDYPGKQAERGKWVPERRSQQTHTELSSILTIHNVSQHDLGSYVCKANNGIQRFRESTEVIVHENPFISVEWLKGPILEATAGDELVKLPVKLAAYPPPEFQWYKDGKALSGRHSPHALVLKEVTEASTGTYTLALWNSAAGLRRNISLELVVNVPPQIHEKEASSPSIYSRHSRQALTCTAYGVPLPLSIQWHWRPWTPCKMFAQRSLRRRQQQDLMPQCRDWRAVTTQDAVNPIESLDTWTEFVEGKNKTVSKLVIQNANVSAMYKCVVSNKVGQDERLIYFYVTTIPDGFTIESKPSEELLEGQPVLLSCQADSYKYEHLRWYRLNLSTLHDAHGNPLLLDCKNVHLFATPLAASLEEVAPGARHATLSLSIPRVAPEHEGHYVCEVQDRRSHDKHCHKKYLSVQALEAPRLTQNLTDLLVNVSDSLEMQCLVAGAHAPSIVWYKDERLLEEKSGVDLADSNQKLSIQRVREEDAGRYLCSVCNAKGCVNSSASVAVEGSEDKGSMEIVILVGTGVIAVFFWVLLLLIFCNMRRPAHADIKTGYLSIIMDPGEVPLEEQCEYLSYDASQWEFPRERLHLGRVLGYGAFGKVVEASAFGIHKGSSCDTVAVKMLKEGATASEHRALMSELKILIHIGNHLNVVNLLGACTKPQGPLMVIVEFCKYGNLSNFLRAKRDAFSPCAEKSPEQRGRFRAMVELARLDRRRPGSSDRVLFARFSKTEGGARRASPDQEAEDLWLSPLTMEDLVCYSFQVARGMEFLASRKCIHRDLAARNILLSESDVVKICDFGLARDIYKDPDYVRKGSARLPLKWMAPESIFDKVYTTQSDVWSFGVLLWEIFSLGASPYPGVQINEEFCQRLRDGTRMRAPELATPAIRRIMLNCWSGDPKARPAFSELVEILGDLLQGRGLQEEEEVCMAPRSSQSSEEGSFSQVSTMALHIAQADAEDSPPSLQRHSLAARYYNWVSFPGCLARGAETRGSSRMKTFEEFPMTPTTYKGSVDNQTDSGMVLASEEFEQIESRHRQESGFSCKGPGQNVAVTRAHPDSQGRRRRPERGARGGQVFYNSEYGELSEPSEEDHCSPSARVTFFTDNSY
Chain of UniProt Q7KZI7 (whole entry, looked up): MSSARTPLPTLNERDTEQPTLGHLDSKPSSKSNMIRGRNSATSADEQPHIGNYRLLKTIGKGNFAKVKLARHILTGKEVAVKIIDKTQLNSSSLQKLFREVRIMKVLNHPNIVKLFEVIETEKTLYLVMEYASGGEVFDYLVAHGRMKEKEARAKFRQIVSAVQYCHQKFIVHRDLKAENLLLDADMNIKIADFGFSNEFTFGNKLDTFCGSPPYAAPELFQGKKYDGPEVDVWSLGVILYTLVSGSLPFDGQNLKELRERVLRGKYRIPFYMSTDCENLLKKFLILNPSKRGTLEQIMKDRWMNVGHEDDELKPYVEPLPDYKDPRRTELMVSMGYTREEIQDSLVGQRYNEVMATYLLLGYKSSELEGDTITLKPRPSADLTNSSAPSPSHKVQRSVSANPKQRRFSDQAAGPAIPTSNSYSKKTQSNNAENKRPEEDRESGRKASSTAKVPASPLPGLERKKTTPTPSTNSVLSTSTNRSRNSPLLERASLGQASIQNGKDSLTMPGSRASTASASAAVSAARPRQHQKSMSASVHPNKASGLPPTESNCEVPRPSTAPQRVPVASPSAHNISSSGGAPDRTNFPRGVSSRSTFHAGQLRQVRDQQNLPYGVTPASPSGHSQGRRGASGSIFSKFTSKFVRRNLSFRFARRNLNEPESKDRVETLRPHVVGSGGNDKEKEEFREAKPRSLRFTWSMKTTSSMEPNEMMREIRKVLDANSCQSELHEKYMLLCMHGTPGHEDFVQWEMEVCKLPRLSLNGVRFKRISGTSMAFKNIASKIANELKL
Chain of UniProt P19525 (whole entry, looked up): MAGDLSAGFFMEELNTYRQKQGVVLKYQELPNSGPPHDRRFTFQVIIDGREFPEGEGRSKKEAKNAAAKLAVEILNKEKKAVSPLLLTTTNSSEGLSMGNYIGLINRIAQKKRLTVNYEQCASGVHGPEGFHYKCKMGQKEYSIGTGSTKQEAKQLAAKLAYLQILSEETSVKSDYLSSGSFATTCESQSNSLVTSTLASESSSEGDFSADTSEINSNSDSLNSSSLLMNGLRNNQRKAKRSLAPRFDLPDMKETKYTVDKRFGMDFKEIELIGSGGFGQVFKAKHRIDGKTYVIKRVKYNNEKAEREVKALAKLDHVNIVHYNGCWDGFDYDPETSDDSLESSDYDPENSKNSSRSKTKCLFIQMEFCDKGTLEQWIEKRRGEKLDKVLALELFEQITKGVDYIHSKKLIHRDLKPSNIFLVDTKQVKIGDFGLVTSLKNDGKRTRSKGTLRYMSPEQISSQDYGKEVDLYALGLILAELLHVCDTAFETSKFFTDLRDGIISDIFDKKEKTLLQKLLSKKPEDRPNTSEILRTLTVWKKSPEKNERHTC
Chain of UniProt Q9HC98 (whole entry, looked up): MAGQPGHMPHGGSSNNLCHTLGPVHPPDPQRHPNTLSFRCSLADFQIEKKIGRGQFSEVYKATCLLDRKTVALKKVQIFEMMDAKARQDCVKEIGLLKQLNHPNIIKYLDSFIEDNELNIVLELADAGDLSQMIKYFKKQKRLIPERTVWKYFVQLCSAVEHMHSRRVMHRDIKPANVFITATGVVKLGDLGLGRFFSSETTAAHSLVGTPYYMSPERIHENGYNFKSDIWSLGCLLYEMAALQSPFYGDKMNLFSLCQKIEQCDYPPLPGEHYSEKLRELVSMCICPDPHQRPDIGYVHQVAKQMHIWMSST

Study 1
SMILES: COc1cc(-c2nc3ccc(C(=O)NCCCN4CCN(c5cccc(C)c5C)CC4)cc3n2C2CCC2)cc(OC)c1OC
Read-out: binding
Technique: competition with immobilised ligand
Tested at: 1 µM
Endpoint: remaining binding
Ribosomal protein S6 kinase alpha-1, C-terminal kinase domain (RPS6KA1, Homo sapiens, UniProt Q15418): 95%
KIT (Homo sapiens, UniProt P10721, L576P): 100%
FLT4 (Homo sapiens, UniProt P35916): 88%
EIF2AK2 (Homo sapiens, UniProt P19525): 100%
MAPK1 (Homo sapiens, UniProt P28482): 84%
MAP3K19 (Homo sapiens, UniProt Q56UN5): 99%
TLK1 (Homo sapiens, UniProt Q9UKI8): 97%
DAPK3 (Homo sapiens, UniProt O43293): 100%
MARK2 (Homo sapiens, UniProt Q7KZI7): 88%
CHEK1 (Homo sapiens, UniProt O14757): 82%
CDK2 (Homo sapiens, UniProt P24941): 100%
Tyrosine-protein kinase ABL1, non-phosphorylated (ABL1, Homo sapiens, UniProt P00519, T315I): 91%
PTK6 (Homo sapiens, UniProt Q13882): 95%
DCLK3 (Homo sapiens, UniProt Q9C098): 77%
PTK2 (Homo sapiens, UniProt Q05397): 96%
DAPK1 (Homo sapiens, UniProt P53355): 97%
RIPK4 (Homo sapiens, UniProt P57078): 99%
STK32B (Homo sapiens, UniProt Q9NY57): 78%

Study 2
SMILES: CNc1ncc2cc(-c3cc(OC)cc(OC)c3Cl)c(=O)n(CCc3ccc(NC(=O)C(C#N)=CC(C)(C)N4CCOCC4)cc3)c2n1
Read-out: kinase activity
Endpoint: inhibition
CHEK2 (Homo sapiens, UniProt O96017); 1 µM: 0%
Cyclin-dependent kinase 9, with cyclin T1 (CDK9, Homo sapiens, UniProt P50750); 0.1 µM: 3%
AKT3 (Homo sapiens, UniProt Q9Y243); 0.1 µM: 0%
BMX (Homo sapiens, UniProt P51813); 1 µM: -10%
PRKCE (Homo sapiens, UniProt Q02156); 1 µM: 13%
PRKCA (Homo sapiens, UniProt P17252); 1 µM: -6%
CSNK1G2 (Homo sapiens, UniProt P78368); 0.1 µM: 0%
CDK2 (Homo sapiens, UniProt P24941); 1 µM: 6%
TAOK3 (Homo sapiens, UniProt Q9H2K8); 1 µM: 13%
IRAK4 (Homo sapiens, UniProt Q9NWZ3); 0.1 µM: -1%
PTK2 (Homo sapiens, UniProt Q05397); 0.1 µM: 5%
FLT4 (Homo sapiens, UniProt P35916); 0.1 µM: 61%
MARK2 (Homo sapiens, UniProt Q7KZI7); 1 µM: 2%
NEK1 (Homo sapiens, UniProt Q96PY6); 1 µM: 41%
Protein kinase C beta type, isoform beta-I (PRKCB, Homo sapiens, UniProt P05771); 1 µM: 3%
NEK9 (Homo sapiens, UniProt Q8TD19); 1 µM: -6%
AKT1 (Homo sapiens, UniProt P31749); 0.1 µM: 3%
FER (Homo sapiens, UniProt P16591); 1 µM: 14%
RPS6KB2 (Homo sapiens, UniProt Q9UBS0); 0.1 µM: -2%
TNK2 (Homo sapiens, UniProt Q07912); 0.1 µM: -1%
EPHA2 (Homo sapiens, UniProt P29317); 1 µM: 4%

Study 3
Structure (SMILES): Cc1ncsc1-c1ccc(C(CO)NC(=O)C2CC(O)CN2C(=O)C(C(C)C)n2cc(-c3ccc(COc4c(-c5c(C)c(F)cc6[nH]ncc56)c(C5CC5)cc5c(N6CC7CC6CN7)nc(OC6CCOCC6)nc45)cc3)nn2)cc1 (stereo not shown)
Route: intravenous
Endpoint: concentration
mouse, PK-59 xenograft, pancreas; 10 mg/kg, 48 h: 46 ng/g and 51.6 ng/g
male Balb/c nu/nu mouse, PK-59 xenograft, plasma; 10 mg/kg, 2 h: 3280 ng/mL and 1250 ng/mL and 2040 ng/mL
male Balb/c nu/nu mouse, PK-59 xenograft, pancreas; 10 mg/kg, 2 h: 358 ng/g and 190 ng/g and 525 ng/g
mouse (PK-59 xenograft), pancreas; 30 mg/kg, 48 h: 139 ng/g
mouse, PK-59 xenograft, pancreas; 10 mg/kg, 144 h: 2.45 ng/g and 3.08 ng/g and 5.03 ng/g
mouse, PK-59 xenograft, tumor; 30 mg/kg, 48 h: 983 ng/g and 599 ng/g
male Balb/c nu/nu mouse, PK-59 xenograft, tumor; 10 mg/kg, 6 h: 329 ng/g and 223 ng/g
male Balb/c nu/nu mouse, PK-59 xenograft, pancreas; 30 mg/kg, 2 h: 1830 ng/g and 1700 ng/g

Study 4
SMILES: CCN1/C(=C/C=C2\CCCC(/C=C/C3=[N+](CC)c4ccccc4C3(C)C)=C2NCCCCCCCCN2CCC(Nc3nc4ccccc4n3Cc3ccc(F)cc3)CC2)C(C)(C)c2ccccc21
Cell line: U-87 MG
Tested at: concentration not given
Baseline: DMSO
Endpoint: log2 fold change
measured: C9orf40 mRNA: -1.13
measured: CHAF1A mRNA: -1.51
measured: PTPRS mRNA: -0.812
measured: RASL10B mRNA: -3.33
measured: ZNF133 mRNA: 0.845
measured: UBAP1 mRNA: 0.885
measured: C1RL mRNA: -1.07
measured: EME1 mRNA: -2.06
measured: RCCD1 mRNA: -0.904
measured: PTPRU mRNA: -2
measured: ACP3 mRNA: -1.92
measured: STK24 mRNA: 0.861
measured: TAF1D mRNA: 1.1
measured: PCDH7 mRNA: -1.92
measured: PLCXD1 mRNA: -1.32
measured: WDR90 mRNA: -1.11

Study 5
SMILES: CCC1(c2cccc(-c3cn(C)nc3C)c2)C2=C(Nc3n[nH]cc31)C(F)C(C)(C)CC2=O (single isomer, unassigned)
Tested at: 1 µM
Endpoint: remaining binding
ACVR2A (Homo sapiens, UniProt P27037); kinase binding, KINOMEscan; baseline: DMSO control: 100%
HUNK (Homo sapiens, UniProt P57058); binding, competition with immobilised ligand: 76%
Tyrosine-protein kinase ABL1, phosphorylated (ABL1, Homo sapiens, UniProt P00519, Q252H); binding, competition with immobilised ligand: 64%
AXL (Homo sapiens, UniProt P30530); binding, competition with immobilised ligand: 100%
PAK5 (Homo sapiens, UniProt Q9P286); binding, competition with immobilised ligand: 66%
EGFR (Homo sapiens, UniProt P00533, L861Q); kinase binding, KINOMEscan; baseline: DMSO control: 100%
PIK3CB (Homo sapiens, UniProt P42338); binding, competition with immobilised ligand: 100%
NEK6 (Homo sapiens, UniProt Q9HC98); kinase binding, KINOMEscan; baseline: DMSO control: 80%
FLT3 (Homo sapiens, UniProt P36888, R834Q); kinase binding, KINOMEscan; baseline: DMSO control: 100%
MAP3K13 (Homo sapiens, UniProt O43283); binding, competition with immobilised ligand: 100%
PHKG2 (Homo sapiens, UniProt P15735); binding, competition with immobilised ligand: 100%
MAPK6 (Homo sapiens, UniProt Q16659); kinase binding, KINOMEscan; baseline: DMSO control: 100%
CIT (Homo sapiens, UniProt O14578); binding, competition with immobilised ligand: 100%
BMPR2 (Homo sapiens, UniProt Q13873); binding, competition with immobilised ligand: 84%
ERBB3 (Homo sapiens, UniProt P21860); kinase binding, KINOMEscan; baseline: DMSO control: 100%
EIF2AK2 (Homo sapiens, UniProt P19525); kinase binding, KINOMEscan; baseline: DMSO control: 100%
FRK (Homo sapiens, UniProt P42685); kinase binding, KINOMEscan; baseline: DMSO control: 100%
MAP4K1 (Homo sapiens, UniProt Q92918); kinase binding, KINOMEscan; baseline: DMSO control: 91%
NTRK3 (Homo sapiens, UniProt Q16288); binding, competition with immobilised ligand: 77%
Aurora kinase B (AURKB, Homo sapiens, UniProt Q96GD4); binding, competition with immobilised ligand: 65%

Study 6
Structure (SMILES): Cc1ccc(O)c(C)c1-c1cnc2[nH]c(-c3cnc(N)nc3)cc2c1C#N
Target: Membrane-associated tyrosine- and threonine-specific cdc2-inhibitory kinase (PKMYT1, Homo sapiens, UniProt Q99640)
Chain of UniProt Q99640 (whole entry, looked up): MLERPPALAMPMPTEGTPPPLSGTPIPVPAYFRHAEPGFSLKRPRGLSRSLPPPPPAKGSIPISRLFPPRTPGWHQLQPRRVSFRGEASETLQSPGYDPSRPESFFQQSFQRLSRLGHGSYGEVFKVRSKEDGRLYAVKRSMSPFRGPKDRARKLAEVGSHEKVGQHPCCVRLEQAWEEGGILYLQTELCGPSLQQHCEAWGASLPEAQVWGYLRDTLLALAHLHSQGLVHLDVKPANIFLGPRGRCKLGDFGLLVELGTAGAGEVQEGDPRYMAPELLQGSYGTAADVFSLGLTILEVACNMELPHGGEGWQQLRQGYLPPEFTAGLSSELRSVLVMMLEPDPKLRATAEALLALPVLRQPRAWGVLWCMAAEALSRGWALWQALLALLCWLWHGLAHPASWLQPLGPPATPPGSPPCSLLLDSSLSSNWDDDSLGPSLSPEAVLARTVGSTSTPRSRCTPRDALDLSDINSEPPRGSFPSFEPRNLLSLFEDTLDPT
Action: degrader
Technique: automated immunoblot
Cell line: HCC1569
Endpoint: degradation
0.02 nM: 5.39%
333.33 nM: -33.8%
1000 nM: -26.7%
1.37 nM: -7.31%
4.12 nM: -12.3%
0.05 nM: -2.37%
111.11 nM: -32.5%
37.04 nM: -29.4%

Study 7
Compound: C[C@@H]1CN(c2ccc(-c3cc(C(=O)NCCOCCOCCOCCOCCOCCOCCNC(=O)/C=C/c4[nH]cc(C(=O)N[C@@H](CC(N)=O)c5ccc(F)c(Cl)c5)c4-c4ccc(Cl)cc4F)ccc3F)cc2NC(=O)c2ccc(F)cc2C(F)(F)F)C[C@H](C)N1C
Read-out: thermal unfolding
Technique: differential scanning fluorimetry
Tested at: 5.5 µM
Direction: higher = more unfolded
Endpoint: SYPRO Orange fluorescence
WDR5: WD repeat-containing protein 5 (WDR5, Homo sapiens, UniProt P61964)
DCAF1: DDB1- and CUL4-associated factor 1 (DCAF1, Homo sapiens, UniProt Q9Y4B6)
Chain of UniProt Q9Y4B6 (whole entry, looked up): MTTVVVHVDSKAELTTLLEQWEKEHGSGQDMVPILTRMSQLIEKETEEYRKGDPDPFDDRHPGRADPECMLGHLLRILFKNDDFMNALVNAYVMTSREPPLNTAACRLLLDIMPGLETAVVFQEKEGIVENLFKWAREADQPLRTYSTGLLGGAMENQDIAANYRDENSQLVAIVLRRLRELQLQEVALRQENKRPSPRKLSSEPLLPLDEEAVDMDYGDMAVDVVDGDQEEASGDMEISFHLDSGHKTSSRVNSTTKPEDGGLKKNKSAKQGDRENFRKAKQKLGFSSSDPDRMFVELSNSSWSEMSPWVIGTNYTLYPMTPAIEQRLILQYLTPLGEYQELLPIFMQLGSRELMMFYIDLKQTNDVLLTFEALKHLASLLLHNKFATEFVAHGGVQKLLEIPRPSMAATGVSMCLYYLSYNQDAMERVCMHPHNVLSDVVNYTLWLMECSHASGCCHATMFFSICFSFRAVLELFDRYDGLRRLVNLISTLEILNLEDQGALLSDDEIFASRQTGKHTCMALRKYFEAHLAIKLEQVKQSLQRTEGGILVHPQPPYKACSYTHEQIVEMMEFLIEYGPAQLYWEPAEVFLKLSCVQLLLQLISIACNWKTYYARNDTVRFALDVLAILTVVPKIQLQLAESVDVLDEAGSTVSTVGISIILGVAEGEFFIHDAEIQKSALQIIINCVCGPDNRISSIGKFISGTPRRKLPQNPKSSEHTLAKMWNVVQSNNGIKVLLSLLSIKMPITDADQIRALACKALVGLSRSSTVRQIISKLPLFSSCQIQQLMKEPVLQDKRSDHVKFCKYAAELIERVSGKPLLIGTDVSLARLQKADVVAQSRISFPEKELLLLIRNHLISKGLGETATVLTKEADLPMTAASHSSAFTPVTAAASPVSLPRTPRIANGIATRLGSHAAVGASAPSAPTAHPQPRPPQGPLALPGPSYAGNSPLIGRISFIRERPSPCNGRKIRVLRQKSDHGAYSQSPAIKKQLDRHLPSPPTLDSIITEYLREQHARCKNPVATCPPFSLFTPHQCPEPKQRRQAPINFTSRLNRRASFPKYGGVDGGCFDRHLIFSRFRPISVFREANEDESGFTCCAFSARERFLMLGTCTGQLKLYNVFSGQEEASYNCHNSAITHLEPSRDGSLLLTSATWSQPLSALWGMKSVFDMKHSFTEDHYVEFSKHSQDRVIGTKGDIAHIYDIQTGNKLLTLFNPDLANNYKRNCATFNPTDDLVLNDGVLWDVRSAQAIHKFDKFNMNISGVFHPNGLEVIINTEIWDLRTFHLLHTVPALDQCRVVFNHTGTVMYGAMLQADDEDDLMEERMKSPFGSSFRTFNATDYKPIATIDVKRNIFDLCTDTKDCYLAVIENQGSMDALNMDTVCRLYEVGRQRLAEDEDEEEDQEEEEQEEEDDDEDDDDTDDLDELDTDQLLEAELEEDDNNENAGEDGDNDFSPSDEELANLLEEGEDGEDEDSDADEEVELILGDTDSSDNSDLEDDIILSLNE
WDR5; 90.41 °C: 54400 a.u.
DCAF1; 36 °C: 10300 a.u.
WDR5; 86.61 °C: 59900 a.u.
DCAF1; 82.21 °C: 38400 a.u.
DCAF1; 36.8 °C: 10600 a.u.
WDR5; 46.8 °C: 15100 a.u.
WDR5; 51.8 °C: 16700 a.u.
WDR5; 78.61 °C: 61900 a.u.
WDR5; 32 °C: 13700 a.u.
DCAF1; 90.41 °C: 32100 a.u.
WDR5; 86.81 °C: 59600 a.u.

Study 8
Structure (SMILES): CN1CCC[C@H]1COc1nc2c(c(N3CCN(C(=O)C(F)(F)F)[C@@H](CC#N)C3)n1)CCN(c1cccc3cccc(Cl)c13)C2
Target: GTPase HRas (HRAS, Homo sapiens, UniProt P01112)
Read-out: binding
Technique: NanoBRET
Cell line: HEK293 (live)
Direction: lower = stronger binding
Endpoint: target engagement
0.09151 µM: 99.9% and 96.2% and 95.1%
1.046 µM: 130% and 99.1% and 138%
1.523 µM: 193% and 127% and 202%
0.5686 µM: 110% and 101% and 104%

Repeated from above (study 1):
KIT (Homo sapiens, UniProt P10721, L576P): 100%
FLT4 (Homo sapiens, UniProt P35916): 88%
EIF2AK2 (Homo sapiens, UniProt P19525): 100%
MAPK1 (Homo sapiens, UniProt P28482): 84%
MAP3K19 (Homo sapiens, UniProt Q56UN5): 99%
TLK1 (Homo sapiens, UniProt Q9UKI8): 97%
DAPK3 (Homo sapiens, UniProt O43293): 100%
MARK2 (Homo sapiens, UniProt Q7KZI7): 88%
CHEK1 (Homo sapiens, UniProt O14757): 82%
CDK2 (Homo sapiens, UniProt P24941): 100%
Tyrosine-protein kinase ABL1, non-phosphorylated (ABL1, Homo sapiens, UniProt P00519, T315I): 91%
PTK6 (Homo sapiens, UniProt Q13882): 95%
DCLK3 (Homo sapiens, UniProt Q9C098): 77%
PTK2 (Homo sapiens, UniProt Q05397): 96%
DAPK1 (Homo sapiens, UniProt P53355): 97%
RIPK4 (Homo sapiens, UniProt P57078): 99%
STK32B (Homo sapiens, UniProt Q9NY57): 78%
